Results collected from several papers.
Every numbered part comes from another study and shows a few of its results, in no order.

Sample 1
Target: 5-hydroxytryptamine receptor 5A (HTR5A, Homo sapiens, UniProt P47898)
UniProt P47898, sequence (whole entry, looked up): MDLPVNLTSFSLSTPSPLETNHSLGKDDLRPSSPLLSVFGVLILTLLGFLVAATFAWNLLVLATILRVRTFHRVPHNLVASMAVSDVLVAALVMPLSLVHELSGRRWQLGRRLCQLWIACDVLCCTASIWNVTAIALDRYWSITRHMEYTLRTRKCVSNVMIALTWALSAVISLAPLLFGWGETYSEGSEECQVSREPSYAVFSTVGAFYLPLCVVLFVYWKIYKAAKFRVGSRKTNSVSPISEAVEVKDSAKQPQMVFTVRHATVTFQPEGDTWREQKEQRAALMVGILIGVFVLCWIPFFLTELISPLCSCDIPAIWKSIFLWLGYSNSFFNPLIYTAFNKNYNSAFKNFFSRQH
Read-out: cell-free assay
Concentration: 10 µM
The inhibition of `N#CC1(c2ccccn2)CCN(Cc2cc(C(=O)N3CCCC3)c(=O)n3ccccc23)CC1` is reported as -19.8%.
The inhibition of `CN1CCN(c2ccnc(NCCc3ccccc3)n2)CC1` is reported as 59.8%.
For `Cc1nc(C2CCN(C(=O)c3ccc(OC(F)(F)F)cc3N)CC2)c2ncc(N3CCN(C)CC3)cc2n1`, the inhibition was -3.74%.
The inhibition of `COc1cc(-c2cn(C3CCc4ccccc4N(CC(F)(F)F)C3=O)nn2)ccc1-n1ccc(C)n1` (centres unmarked) is reported as 9.69%.
With `COCc1nc2cnc3cc(-c4c(C)noc4C)c(OC[C@H]4CCNC4)cc3c2n1[C@H](C)c1ccccc1` the inhibition was 21.5%.
The inhibition of `C[C@H](c1ccc(F)cc1)N(Cc1cccc(C(=O)O)c1)C(=O)c1cnc2ccccc2c1` is reported as -1.89%.
With `Cn1nc(C(F)(F)F)cc1-c1cnc(N2CCc3cc(S(=O)(=O)Nc4c(F)cc(Cl)cc4F)cc(N4CCCC4=O)c32)nc1` the inhibition was 7.89%.
`C[C@@H](NC(=O)Nc1cc2[nH]ncc2c(CO)n1)c1ccccc1` has an inhibition of 1.39%.
`Cc1cc(-n2nc(Cc3cc(F)cc(C(F)(F)F)c3)nc2C)ccc1C(N)=O` has an inhibition of 7.99%.
`CN(c1ccnc(CNc2nc(Nc3ccc4c(c3)CC(=O)N4)ncc2C(F)(F)F)n1)S(C)(=O)=O` gave an inhibition of 1.82%.
The inhibition of `COc1cccc(NC(=O)c2nc3scc(CN(C)Cc4ccccc4)c3c(=O)[nH]2)c1` is reported as 2.97%.
For `CCC(=NO)C(C)=Cc1ccc(F)c(C)c1`, the inhibition was -3.24%.
`CS(=O)(=O)c1cc(C2(NC(=O)c3cncc4c3cnn4-c3ccc(F)cc3)CC2)ccn1` gave an inhibition of -14.2%.
With `CN(C)[C@@H]1CCN(c2cc(-c3ccccc3)nc3ccnn23)C1` the inhibition was 13.8%.
`O=C(NNS(=O)(=O)c1ccccc1F)c1cc(F)cc(-c2ccccn2)c1` has an inhibition of -9.77%.

Sample 2
Cell line: A-375
Concentration: 100 µM
Time: 18 h
`NCCc1c[nH]cn1` gave a viability of 96.7%.
With `CN(C)CCC(c1ccc(Cl)cc1)c1ccccn1` (centres unmarked) the viability was 108%.
The viability of `COc1ccc(CN2CCN(C(c3ccc(F)cc3)c3ccc(F)cc3)CC2)c(OC)c1OC` is reported as 50.8%.
`COc1cc2ccc(=O)oc2c(O)c1O` gave a viability of 109%.
`N[C@H](Cc1ccccc1)C(=O)O` has a viability of 97.7%.
With `O=C(O)[C@H](CC(=O)N1C[C@H]2CCCC[C@H]2C1)Cc1ccccc1` the viability was 110%.
`Oc1ncnc2[nH]ncc12` has a viability of 97.5%.
`Nc1nc2c(ncn2CCC(CO)CO)c(=O)[nH]1` has a viability of 78.6%.
The viability of `NC(=O)NO` is reported as 85.7%.
For `Cc1cc(NS(=O)(=O)c2ccc(N)cc2)nc(C)n1`, the viability was 95.7%.

Sample 3
Organism: Sarcocystis neurona
Read-out: parasite growth
Concentration: 10 µM
Time: 96 h
Notes: first screen
The inhibition of `C[C@H](CCC(=O)O)[C@H]1CC[C@H]2[C@@H]3C(=O)C[C@@H]4CC(=O)CC[C@]4(C)[C@H]3CC(=O)[C@]12C` is reported as 9.5%.
`Oc1ccc(/C=C/c2cc(O)cc(O)c2)cc1` gave an inhibition of -10.2%.
`COc1ccc(-c2oc3c(CC=C(C)C)c(O[C@@H]4O[C@H](CO)[C@@H](O)[C@H](O)[C@H]4O)cc(O)c3c(=O)c2O[C@@H]2O[C@@H](C)[C@H](O)[C@@H](O)[C@H]2O)cc1` has an inhibition of -0.223%.
`C#C[C@]1(OC(C)=O)CC[C@H]2[C@@H]3CCC4=CC(=O)CC[C@@H]4[C@H]3CC[C@@]21C` has an inhibition of -5.8%.
The inhibition of `O=C1N[C@H](C(=O)O)CS1` is reported as -11.8%.
`Clc1ccc2c(c1)C(N1CCNCC1)=Nc1ccccc1O2` gave an inhibition of -1.2%.
With `CN(C)CCCC1(c2ccc(F)cc2)OCc2cc(C#N)ccc21` (centres unmarked) the inhibition was 2.4%.
`COc1c(N2CCNC(C)C2)c(F)cc2c(=O)c(C(=O)O)cn(C3CC3)c12` (centres unmarked) gave an inhibition of -22.8%.
For `Cc1nnc(SCC2=C(C(=O)O)N3C(=O)[C@@H](NC(=O)Cn4cnnn4)[C@H]3SC2)s1`, the inhibition was -15.2%.
With `CCn1cc(C(=O)O)c(=O)c2cc(F)c(N3CCNCC3)cc21` the inhibition was -1.8%.
For `O=C(O)Cc1ccccc1Nc1c(Cl)cccc1Cl`, the inhibition was -6.2%.
With `CCOC(=O)[C@H](CCc1ccccc1)N[C@@H](C)C(=O)N1CCC[C@H]1C(=O)O` the inhibition was -7.3%.
For `CCN1CCN(c2cc3c(cc2F)c(=O)c(C(=O)O)cn3C2CC2)CC1`, the inhibition was 16.6%.
For `NS(=O)(=O)c1cc2c(cc1Cl)NCNS2(=O)=O`, the inhibition was -20.2%.

Sample 4
Target: Receptor tyrosine-protein kinase erbB-4 (ERBB4, Homo sapiens, UniProt Q15303)
UniProt Q15303, sequence (whole entry, looked up): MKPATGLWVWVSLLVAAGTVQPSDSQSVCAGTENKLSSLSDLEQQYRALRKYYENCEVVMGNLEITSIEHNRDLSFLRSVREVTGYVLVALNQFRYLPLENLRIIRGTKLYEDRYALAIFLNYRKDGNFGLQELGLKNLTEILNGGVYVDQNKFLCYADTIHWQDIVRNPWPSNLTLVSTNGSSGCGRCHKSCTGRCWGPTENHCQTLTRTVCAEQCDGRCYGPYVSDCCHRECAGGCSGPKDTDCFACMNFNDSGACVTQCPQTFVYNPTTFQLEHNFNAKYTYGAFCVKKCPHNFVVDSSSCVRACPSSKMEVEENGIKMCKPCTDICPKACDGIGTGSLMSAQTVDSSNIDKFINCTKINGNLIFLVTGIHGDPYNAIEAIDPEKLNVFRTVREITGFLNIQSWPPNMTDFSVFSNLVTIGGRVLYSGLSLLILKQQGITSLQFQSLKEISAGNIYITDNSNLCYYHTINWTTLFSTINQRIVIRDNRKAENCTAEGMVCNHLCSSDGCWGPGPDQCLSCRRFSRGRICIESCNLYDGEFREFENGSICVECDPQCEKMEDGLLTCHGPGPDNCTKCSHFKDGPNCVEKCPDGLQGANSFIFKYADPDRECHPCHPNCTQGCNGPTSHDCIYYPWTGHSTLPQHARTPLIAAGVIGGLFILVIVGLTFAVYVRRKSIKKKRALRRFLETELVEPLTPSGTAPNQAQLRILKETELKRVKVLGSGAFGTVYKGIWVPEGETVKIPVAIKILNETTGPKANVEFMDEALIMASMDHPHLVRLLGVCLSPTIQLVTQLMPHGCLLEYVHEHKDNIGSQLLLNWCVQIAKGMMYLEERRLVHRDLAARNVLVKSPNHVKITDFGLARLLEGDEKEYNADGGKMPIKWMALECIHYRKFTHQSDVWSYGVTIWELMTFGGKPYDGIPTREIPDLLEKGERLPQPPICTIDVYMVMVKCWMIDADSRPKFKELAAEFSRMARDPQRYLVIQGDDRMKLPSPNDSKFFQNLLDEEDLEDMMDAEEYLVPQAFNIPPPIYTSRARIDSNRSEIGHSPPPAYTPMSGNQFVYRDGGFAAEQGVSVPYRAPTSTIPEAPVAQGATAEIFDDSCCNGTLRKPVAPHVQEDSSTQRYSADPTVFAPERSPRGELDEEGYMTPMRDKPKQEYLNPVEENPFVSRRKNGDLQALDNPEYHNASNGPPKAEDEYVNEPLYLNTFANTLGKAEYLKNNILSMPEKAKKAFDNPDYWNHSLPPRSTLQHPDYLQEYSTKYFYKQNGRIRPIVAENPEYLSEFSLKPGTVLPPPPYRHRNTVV
Read-out: enzyme activity
Action: inhibitor
Concentration: 0.5 µM
Baseline: control
With `Fc1ccc(-c2nc3n(c2-c2ccncc2)CCS3)cc1` the remaining activity was 83%.
With `CC(C)(C)n1nc(Cc2cccc3ccccc23)c2c(N)ncnc21` the remaining activity was 80.3%.
The remaining activity of `CCc1[nH]c(-c2ccc(OC)cc2)nc1-c1ccncc1` is reported as 86.8%.
`COc1cc(Nc2c(C#N)cnc3cc(OCCCN4CCN(C)CC4)c(OC)cc23)c(Cl)cc1Cl` has a remaining activity of 1.53%.
`CSc1nc(-c2ccnc(N[C@@H](C)c3ccccc3)c2)c(-c2ccc(F)cc2)[nH]1` (racemic) gave a remaining activity of 98.4%.
The remaining activity of `COc1ccc(S(=O)(=O)N(CCO)c2ccccc2CN(C)CC=Cc2ccc(Cl)cc2)cc1` is reported as 104%.
`CC[n+]1c(/C=C/N(C)c2ccccc2)n(-c2ccccc2)c2ccc(-c3nc4ccccc4s3)cc21` has a remaining activity of 102%.
`NC(=O)c1ccc(N(C(N)=O)c2c(F)cccc2F)nc1-c1ccc(F)cc1F` has a remaining activity of 98.1%.
With `Nc1nccc(-c2c(-c3ccc(F)cc3)ncn2C2CCNCC2)n1` the remaining activity was 86.8%.
With `O=C1NC(=O)C(c2c[nH]c3ccccc23)=C1c1c[nH]c2ccccc12` the remaining activity was 110%.
`O=S(=O)(NCCNC/C=C/c1ccc(Br)cc1)c1cccc2cnccc12` gave a remaining activity of 94.2%.
